Results gathered from unrelated publications.
Compare with care: the assays were run in different laboratories. Numbers after ± are the reported error.

| Compound | test | test system | conditions | how to read | measurement | result |
| --- | --- | --- | --- | --- | --- | --- |
| CC(O)c1nc(-c2ccc3c(c2)CCC3NC(=O)c2cnn(C)c2)no1 (stereo not drawn) |  | human, plasma | oral, 20 mg of aficamten | reference: aficamten | AUC0-inf reduction | ~44% |
| [11CH3]c1ccc2nc(C3CCC3)n(-c3ccc4[nH]ncc4c3)c2n1 | radio-HPLC | Sprague-Dawley rat, brain | 10 min |  | intact parent fraction | 98% |
| NC[C@@H](C(=O)Nc1ccc(-c2cn[nH]c2)cc1)c1ccccc1 |  | New Zealand White rabbits, aqueous humor | topical, 0.1 % one drop, 8 h |  | concentration | ~81.6 ng/mL |
| Cc1ccc(OCC(=O)O)cc1 |  | Sprague-Dawley rat, female, plasma | oral gavage, 30 mg/kg of parent drug |  | Cmax | 9730 ± 4240 ng/mL |
| C[C@H](Oc1cc(-c2cnn(C3CCN(CC[18F])CC3)c2)cnc1N)c1c(Cl)ccc(F)c1Cl | PET imaging | nude mouse, brain | iv, 10 min post injection |  | tracer uptake | 6.5 ± 2.8 %ID/cc |
| C=CC(=O)Nc1cc(Nc2nccc(-c3cn(C4CC4)c4ccccc34)n2)c(OC)cc1N(C)CCNC | radio-HPLC, co-eluting peaks pooled | human male, feces | oral, 110 mg, 0 to 240 h, sample holds 81.99% dose | reference: dose | excreted amount | 12.3% |
| N=C(N)NCCC[C@@H]1NC(=O)[C@H](Cc2c[nH]c3ccccc23)NC(=O)[C@@H](CC2CCCCC2)NC(=O)[C@@H]2CCCN2C(=O)[C@@H](NC(=O)CCc2ccccc2)CCCNC1=O |  | C57BL/6J mice, spinal cord | intravenous, 1 mg/kg, two-compartment model |  | apparent total clearance (CL/F) | 1.63 ng/(min·ng/g) |
| O=c1nc(NO)ccn1[C@@H]1O[C@H](CO)[C@@H](O)[C@H]1O | western blot, measured: CYP2C11 | rats, CFA-induced arthritis, liver | oral, 80 mg/kg twice daily, 5 days | reference: untreated arthritic rats | protein level | 0.9 fold |
| CC(C)C[C@@H](N)C(=O)N[C@H](CC(=O)O)C(=O)N[C@@H](C(=O)N[C@H](Cc1ccccc1)C(=O)N[C@H](CC(C)C)C(=O)N[C@H](Cc1ccc(O)cc1)C(=O)N[C@H](CO)C(=O)N[C@H](CCC(=O)O)C(=O)O)C(C)C |  | mouse, 4T1 and MC-38 tumour models | dose not given |  | red blood cell count | no effect |
| O=C(CCc1ccc(CNC(C(=O)OC2CCCC2)C2CCCCC2)cn1)NO (stereo not drawn) |  | human, plasma | oral, 20 mg once daily, day 1, geometric mean |  | AUC(tau) | 85.7 ng·h/mL |
| CC(C)[C@H](NC(=O)CNC(=O)[C@H](CCC(N)=O)NC(=O)[C@H](C)N)C(=O)O | LC-MS/MS | human, male, plasma | intravenous, 10 mg/kg three times daily, day 1, first dose, 10 min infusion, geometric mean |  | volume of distribution | 5 L/kg |
| COc1ccc(C=NCCCN(C)CCN(C)CCCN=Cc2ccc(OC)cc2[O-])c([O-])c1.[67Ga+3] |  | rat | intravenous, 1 min | reference: heart over lung | tissue uptake ratio | 1.97 ± 0.29 |
| O=C(NCCCN(CCCCN(CCCNC(=O)c1cccc(=O)n1[O-])C(=O)c1cccc(=O)n1[O-])C(=O)c1cccc(=O)n1[O-])c1cccc(=O)n1[O-].[89Zr+4] |  | mouse, bone | 24 h |  | tracer uptake | 0.17 %ID/g |
| COc1cc(N2CCN(C(=O)C3CCCN3)CC2)ccc1Nc1ncc(Cl)c(Nc2ccccc2P(C)(C)=O)n1 (stereo not drawn) |  | mouse, plasma | oral, 10 mg/kg |  | CL/F | 31.5 mL/min/kg |
| CC(CCCOC(=O)CCC[N+](C)(C)C)C1CCC2C3CCC4CC(OC(=O)CCC[N+](C)(C)C)CCC4(C)C3CCC12C (stereo not drawn) |  | mouse red blood cells | 1 h, 37 °C |  | HC50 | 205 µg/mL |
| CC[C@H](C)[C@H](NC(=O)[C@H](CC(C)C)NC(=O)[C@H](Cc1c[nH]c2ccccc12)NC(=O)[C@H](C)NC(=O)[C@@H](NC(=O)[C@H](Cc1ccccc1)NC(=O)[C@H](CC(=O)O)NC(=O)[C@H](CCCNC(=N)N)NC(=O)[C@H](C)NC(=O)[C@H](C)NC(=O)[C@H](CC(C)C)NC(=O)[C@H](C)NC(=O)[C@H](CC(=O)O)NC(=O)[C@H](CC(C)C)NC(=O)[C@@H](NC(=O)[C@@H](NC(=O)[C@H](C)NC(=O)[C@H](CC(C)C)NC(=O)[C@H](CCC(=O)O)NC(=O)[C@H](CO)NC(=O)[C@H](CO)NC(=O)[C@H](Cc1ccccc1)NC(=O)[C@@H](NC(=O)CNC(=O)[C@H](CCC(=O)O)NC(=O)CNC(=O)[C@@H](N)Cc1cnc[nH]1)[C@@H](C)O)[C@@H](C)O)[C@@H](C)CC)[C@@H](C)CC)C(=O)N[C@@H](C)C(=O)N[C@H](C(=O)N[C@@H](CCCCN)C(=O)N[C@H](C(=O)N[C@H](C(=O)N[C@@H](CC(=O)O)C(=O)N[C@@H](CCCCN)C(=O)N[C@@H](CCCCN)C(=O)N[C@@H](CCCCN)C(=O)N[C@@H](CCCCN)C(=O)N[C@@H](CCCCN)C(=O)N[C@@H](CCCCN)C(N)=O)[C@@H](C)O)[C@@H](C)CC)[C@@H](C)O |  | healthy humans, plasma | subcutaneous, 10 mg once weekly, 6 doses, day 36, geometric mean |  | AUC(0-last) | 0.281 µM·h |
| CCCC[C@H](NC(=O)CNC(=O)CNC(=O)CN1CCN(CC(=O)O)CCN(CC(=O)O)CC1)C(=O)N[C@H]1CC(=O)NCCCC[C@@H](C(N)=O)NC(=O)[C@H](Cc2c[nH]c3ccccc23)NC(=O)[C@H](CCCNC(=N)N)NC(=O)[C@@H](Cc2ccccc2)NC(=O)[C@H](Cc2c[nH]cn2)NC1=O [copper-64 labelled] |  | female C57 mouse, B16/F1 melanoma, kidneys | intravenous, 0.037 MBq, 4 h |  | tissue uptake | 3.53 ± 0.57 %ID/g |

| Compound | test | test system | conditions | how to read | measurement | result |
| --- | --- | --- | --- | --- | --- | --- |
| CC(C)(C)c1cc(-c2ccc3cccnc3n2)nc(-c2ccc3cccnc3n2)c1.COc1ccncc1.[Cl-].[Cl-].[Ru+2].c1ccc2cc3nc4c5cccnc5c5ncccc5c4nc3cc2c1 | 1O2 phosphorescence | acetonitrile | excitation 753 nm | reference: Ru(bpy)3(PF6)2 | singlet oxygen quantum yield | 0.69 |
| COc1cc(N(C)CCN(C)C)c(NC(=O)CCSCC(NC(C)=O)C(=O)O)cc1Nc1nccc(-c2cn(C3CC3)c3ccccc23)n1 (stereo not drawn) | radio-HPLC, co-eluting peaks pooled | human, feces | 0 to 240 h, sample holds 81.99% dose | reference: dose | excreted amount | 2.04% |
| O=C1OC2(c3ccccc31)c1cc(I)c(O)c(I)c1Oc1c2cc(I)c(O)c1I |  | female C57BL/6 mouse, plasma | intraperitoneal, 50 mg/kg |  | AUC(0-inf) | 54200 ng·h/mL |
| CONC(=O)/C=C/c1cccc(S(=O)(=O)Nc2ccccc2)c1 |  | human, moderate liver dysfunction, plasma | intravenous, 400 mg/m^2 belinostat, cycle 1 day -7, geometric mean | reference: metabolite over belinostat | AUC(0-inf) metabolic ratio | 0.892 |
| C[C@H](NC(=O)COC(=O)[C@H](C)NC(=O)CO)C(=O)O |  | water | pH 5, 50 °C |  | depolymerization half-life | 2.91 h |
| CC(C)[C@H](NC(=O)[C@@H]1CCCN1C(=O)[C@H](CCCNC(=N)N)NC(=O)[C@H](CS)NC(=O)[C@H](Cc1c[nH]c2ccccc12)NC(=O)[C@H](CCCNC(=N)N)NC(=O)[C@@H](Cc1ccccc1)NC(=O)[C@H](Cc1c[nH]cn1)NC(=O)[C@H](CCC(=O)O)NC(=O)[C@H](CS)NC(=O)[C@H](CS)NC(=O)[C@@H]1CC(=O)N[C@@H](CCCNC(=N)N)C(=O)NCC(=O)N[C@@H](CC(=O)O)C(=O)N[C@H](Cc2ccc(O)cc2)C(=O)N1)C(N)=O [technetium-99m labelled] |  | C57 mouse, female, B16/F1 melanoma | intravenous, 0.037 MBq, 4 h | reference: tumour over liver | tumour to tissue ratio | 7.81 |
| COc1ccc(-c2csc(N/N=C(\C)c3cc(O)cc(O)c3)n2)cc1 | LC-MS/MS | rat plasma | 3.75 ng/mL, freeze-thaw 5 cycles at 20 °C |  | concentration after storage | 3.39 ng/mL |
| CCNC(=O)OCc1c(COC(=O)NCC)c(-c2ccc(OC)cc2)n2c1Cc1ccccc1-2 |  | BALB/c nude mice, blood | dose not given, day 10 |  | ALT activity | 28.6 ± 1 U/L |
| CC(=O)N[C@H](CC(=O)O)C(=O)N[C@H](Cc1c[nH]c2ccccc12)C(=O)N[C@H](Cc1ccccc1)C(=O)N[C@H](CCCCN)C(=O)N[C@H](C)C(=O)N[C@H](Cc1ccccc1)C(=O)N[C@H](Cc1ccc(O)cc1)C(=O)N[C@H](CC(=O)O)C(=O)N[C@H](CCCCN)C(=O)N[C@@H](C(=O)N[C@H](C)C(=O)N[C@H](CCC(=O)O)C(=O)N[C@H](CCCCN)C(=O)N[C@H](Cc1ccccc1)C(=O)N[C@H](CCCCN)C(=O)N[C@H](CCC(=O)O)C(=O)N[C@H](C)C(=O)N[C@H](Cc1ccccc1)C(N)=O)C(C)C |  | statin-treated high-risk CHD women, plasma | oral, 100 mg daily, day 1, 0 to 2 h, mean, detected subjects |  | Cmax | 6.05 ng/mL |
| COc1cc(NC(C)=O)c2c(c1O)-c1c(OC)c(OC)cc3c1C(C2)N(C)CC3 (stereo not drawn) |  | rat liver homogenate | 50 µg/mL, 40 d, -20 °C, long-term storage |  | remaining compound | 87.5 ± 0.2% |
| CC(C)c1cnc(-c2cc(Cl)ccc2F)cc1Nc1ccncc1C(=O)NC(CO)CO | measured: hypotension | human patients | oral, dose not given, grade 5 |  | patients with related SAE | 0% |
| Cn1c(=O)oc2ccc(-c3ccc(CC(C#N)NC(=O)C4CNCCCO4)c(F)c3)cc21 (stereo not drawn) |  | human, plasma | 60 mg, single dose, fasted, mean |  | half-life | 18.3 h |
| C[Si]1(C[C@H](CN)CC(=O)O)CCCC1 |  | Sprague-Dawley rat, male, brain | oral, 30 mg/kg, estimated as Cmax x Kp |  | brain Cmax | 4.8 µM |
| C[C@@H]1O[C@@H](O[C@@H]2[C@@H](O)[C@H](O)[C@@H](CO)O[C@H]2c2c(O)cc(O)c3c(=O)cc(-c4ccc(O)cc4)oc23)[C@H](O)[C@H](O)[C@H]1O | in situ intestinal perfusion | rat, small intestine | dose not given, 3 h |  | Papp | 0.031 to 0.141 ×10⁻⁶ cm/s |
| CC[C@@H](C)[C@@H](NC(=O)[C@@H](C)NC(=O)[C@@H](CCCCN)NC(=O)[C@@H](CC(C)C)NC(=O)[C@@H](CC(C)C)NC(=O)[C@H](NC(=O)[C@@H](CCCCN)NC(=O)[C@@H](CC(C)C)NC(=O)[C@@H](C)NC(=O)[C@@H](CCCCN)NC(=O)[C@@H](CCCCN)NC(=O)[C@@H](CCCCN)NC(=O)[C@@H](C)NC(=O)[C@@H](CCCCN)NC(=O)[C@@H](CO)NC(=O)[C@@H](Cc1ccccc1)NC(=O)[C@H](NC(=O)[C@@H](CCCCN)NC(=O)[C@@H](CC(C)C)NC(=O)[C@@H](Cc1ccccc1)NC(=O)[C@@H](CO)NC(=O)[C@@H](CCCCN)NC(=O)[C@@H](Cc1c[nH]c2ccccc12)NC(=O)[C@@H](CCCCN)NC(C)=O)[C@H](C)O)[C@H](C)O)C(=O)N[C@H](CO)C(=O)N[C@H](CCCCN)C(N)=O | circular dichroism | 50% trifluoroethanol buffer | 5 °C | reference: reference peptide in TFE | helical content | 96% |
| CCc1c2c(nc3ccc(O)cc13)-c1cc3c(c(=O)n1C2)COC(=O)[C@]3(O)CC |  | human patients, plasma | intravenous, 56 mg/m^2 of parent drug |  | AUC(0-inf) | 1080 ng·h/mL |

A few entries again:
| Compound | test | test system | conditions | how to read | measurement | result |
| --- | --- | --- | --- | --- | --- | --- |
| CC[C@@H](C)[C@@H](NC(=O)[C@@H](C)NC(=O)[C@@H](CCCCN)NC(=O)[C@@H](CC(C)C)NC(=O)[C@@H](CC(C)C)NC(=O)[C@H](NC(=O)[C@@H](CCCCN)NC(=O)[C@@H](CC(C)C)NC(=O)[C@@H](C)NC(=O)[C@@H](CCCCN)NC(=O)[C@@H](CCCCN)NC(=O)[C@@H](CCCCN)NC(=O)[C@@H](C)NC(=O)[C@@H](CCCCN)NC(=O)[C@@H](CO)NC(=O)[C@@H](Cc1ccccc1)NC(=O)[C@H](NC(=O)[C@@H](CCCCN)NC(=O)[C@@H](CC(C)C)NC(=O)[C@@H](Cc1ccccc1)NC(=O)[C@@H](CO)NC(=O)[C@@H](CCCCN)NC(=O)[C@@H](Cc1c[nH]c2ccccc12)NC(=O)[C@@H](CCCCN)NC(C)=O)[C@H](C)O)[C@H](C)O)C(=O)N[C@H](CO)C(=O)N[C@H](CCCCN)C(N)=O | circular dichroism | 50% trifluoroethanol buffer | 5 °C | reference: reference peptide in TFE | helical content | 96% |
| CC(C)(C)c1cc(-c2ccc3cccnc3n2)nc(-c2ccc3cccnc3n2)c1.COc1ccncc1.[Cl-].[Cl-].[Ru+2].c1ccc2cc3nc4c5cccnc5c5ncccc5c4nc3cc2c1 | 1O2 phosphorescence | acetonitrile | excitation 753 nm | reference: Ru(bpy)3(PF6)2 | singlet oxygen quantum yield | 0.69 |
